Literature values as cited in several papers.
Protocols differ between the studies behind these lines. ± marks the error that the study gave.
CDK2: Cyclin-dependent kinase 2 (CDK2, Homo sapiens, UniProt P24941)
PARP1: Poly [ADP-ribose] polymerase 1 (PARP1, Homo sapiens, UniProt P09874)
Sequence of UniProt P09874 (whole entry, looked up): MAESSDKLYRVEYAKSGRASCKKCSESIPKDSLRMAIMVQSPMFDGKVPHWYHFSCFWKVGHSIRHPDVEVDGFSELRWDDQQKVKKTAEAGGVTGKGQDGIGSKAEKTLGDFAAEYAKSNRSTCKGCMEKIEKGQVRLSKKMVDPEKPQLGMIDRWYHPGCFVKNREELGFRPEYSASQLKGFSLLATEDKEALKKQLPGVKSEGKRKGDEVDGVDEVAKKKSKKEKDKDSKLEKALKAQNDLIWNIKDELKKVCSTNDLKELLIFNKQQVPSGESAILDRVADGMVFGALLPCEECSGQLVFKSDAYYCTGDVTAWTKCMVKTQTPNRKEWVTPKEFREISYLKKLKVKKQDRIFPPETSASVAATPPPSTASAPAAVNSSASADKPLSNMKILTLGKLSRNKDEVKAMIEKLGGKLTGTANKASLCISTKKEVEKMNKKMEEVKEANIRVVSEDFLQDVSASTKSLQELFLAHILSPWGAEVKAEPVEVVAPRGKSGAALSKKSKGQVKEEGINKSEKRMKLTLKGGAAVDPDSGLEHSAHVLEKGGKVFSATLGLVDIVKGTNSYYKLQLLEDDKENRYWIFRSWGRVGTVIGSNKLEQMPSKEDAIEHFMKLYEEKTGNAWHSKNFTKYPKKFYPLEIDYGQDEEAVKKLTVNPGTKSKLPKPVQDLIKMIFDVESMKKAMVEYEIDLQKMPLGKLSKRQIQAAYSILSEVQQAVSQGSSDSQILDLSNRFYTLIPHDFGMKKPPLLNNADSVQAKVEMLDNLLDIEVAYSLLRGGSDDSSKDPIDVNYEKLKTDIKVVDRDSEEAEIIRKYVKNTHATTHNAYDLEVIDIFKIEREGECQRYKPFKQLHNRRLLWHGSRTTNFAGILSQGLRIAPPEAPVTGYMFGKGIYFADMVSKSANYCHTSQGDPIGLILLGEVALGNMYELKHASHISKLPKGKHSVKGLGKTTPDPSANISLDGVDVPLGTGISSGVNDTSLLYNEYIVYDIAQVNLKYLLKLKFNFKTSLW
PTGS2: Prostaglandin G/H synthase 2 (PTGS2, Homo sapiens, UniProt P35354)
Sequence of UniProt P35354 (whole entry, looked up): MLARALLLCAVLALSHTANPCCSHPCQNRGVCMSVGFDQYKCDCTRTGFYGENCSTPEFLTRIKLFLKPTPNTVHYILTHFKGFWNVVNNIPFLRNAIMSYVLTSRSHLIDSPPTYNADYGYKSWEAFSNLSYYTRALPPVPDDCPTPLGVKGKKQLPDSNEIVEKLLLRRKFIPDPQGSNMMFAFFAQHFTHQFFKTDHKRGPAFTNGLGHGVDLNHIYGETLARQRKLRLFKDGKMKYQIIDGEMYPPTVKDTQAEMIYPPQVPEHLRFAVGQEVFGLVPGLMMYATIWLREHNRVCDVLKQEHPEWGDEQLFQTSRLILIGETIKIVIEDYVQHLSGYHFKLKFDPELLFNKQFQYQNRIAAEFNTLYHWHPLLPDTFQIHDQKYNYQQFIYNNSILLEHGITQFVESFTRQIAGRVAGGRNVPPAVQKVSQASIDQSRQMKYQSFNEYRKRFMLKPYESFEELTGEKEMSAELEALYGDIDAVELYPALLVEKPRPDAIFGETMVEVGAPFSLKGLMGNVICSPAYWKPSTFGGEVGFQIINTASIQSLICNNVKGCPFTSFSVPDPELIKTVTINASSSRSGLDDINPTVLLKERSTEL
Grin1: Glutamate receptor ionotropic, NMDA 1 (Grin1, Rattus norvegicus, UniProt P35439)
KDR: Vascular endothelial growth factor receptor 2 (KDR, Homo sapiens, UniProt P35968)
Sequence of UniProt P35968 (whole entry, looked up): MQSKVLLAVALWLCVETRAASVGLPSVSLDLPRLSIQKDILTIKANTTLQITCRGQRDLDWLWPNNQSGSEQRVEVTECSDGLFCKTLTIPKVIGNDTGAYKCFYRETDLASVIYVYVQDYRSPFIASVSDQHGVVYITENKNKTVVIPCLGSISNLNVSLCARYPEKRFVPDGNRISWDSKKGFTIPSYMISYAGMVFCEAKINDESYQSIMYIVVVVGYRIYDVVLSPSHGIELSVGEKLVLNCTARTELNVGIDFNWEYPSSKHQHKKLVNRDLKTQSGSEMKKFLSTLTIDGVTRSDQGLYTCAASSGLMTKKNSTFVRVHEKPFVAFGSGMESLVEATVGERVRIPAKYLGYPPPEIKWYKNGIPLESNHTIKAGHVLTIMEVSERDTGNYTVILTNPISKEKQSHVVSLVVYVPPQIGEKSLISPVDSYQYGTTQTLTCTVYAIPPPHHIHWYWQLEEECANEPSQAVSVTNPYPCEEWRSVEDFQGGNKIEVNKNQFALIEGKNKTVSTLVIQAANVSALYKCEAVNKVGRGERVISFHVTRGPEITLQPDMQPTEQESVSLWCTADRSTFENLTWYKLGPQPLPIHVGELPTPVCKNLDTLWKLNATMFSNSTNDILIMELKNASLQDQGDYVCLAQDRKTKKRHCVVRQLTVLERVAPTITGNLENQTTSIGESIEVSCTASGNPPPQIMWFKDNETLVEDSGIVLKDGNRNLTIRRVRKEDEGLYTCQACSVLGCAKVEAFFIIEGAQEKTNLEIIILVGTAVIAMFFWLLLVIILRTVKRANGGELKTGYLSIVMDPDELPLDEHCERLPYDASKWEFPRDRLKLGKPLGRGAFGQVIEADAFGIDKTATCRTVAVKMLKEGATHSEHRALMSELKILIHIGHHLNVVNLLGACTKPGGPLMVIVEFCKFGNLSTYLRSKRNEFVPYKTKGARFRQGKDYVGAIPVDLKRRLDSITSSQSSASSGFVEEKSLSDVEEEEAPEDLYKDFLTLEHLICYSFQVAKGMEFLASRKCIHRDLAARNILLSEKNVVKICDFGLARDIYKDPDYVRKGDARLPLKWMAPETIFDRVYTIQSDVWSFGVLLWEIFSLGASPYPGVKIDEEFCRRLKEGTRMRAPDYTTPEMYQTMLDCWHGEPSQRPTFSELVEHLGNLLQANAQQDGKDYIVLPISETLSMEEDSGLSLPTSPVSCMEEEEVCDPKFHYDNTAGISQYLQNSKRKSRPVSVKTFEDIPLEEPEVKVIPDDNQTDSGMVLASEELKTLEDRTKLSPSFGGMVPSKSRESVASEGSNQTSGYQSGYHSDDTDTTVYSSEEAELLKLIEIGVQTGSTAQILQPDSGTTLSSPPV
Sequence of UniProt P20618 (whole entry, looked up): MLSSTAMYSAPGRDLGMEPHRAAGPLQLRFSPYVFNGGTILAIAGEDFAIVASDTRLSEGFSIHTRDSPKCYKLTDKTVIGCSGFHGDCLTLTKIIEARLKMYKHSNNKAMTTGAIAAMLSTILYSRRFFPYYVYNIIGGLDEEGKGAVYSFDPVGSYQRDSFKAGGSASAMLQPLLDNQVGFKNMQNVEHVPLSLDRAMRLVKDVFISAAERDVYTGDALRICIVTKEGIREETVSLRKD
Sequence of UniProt Q08210 (whole entry, looked up): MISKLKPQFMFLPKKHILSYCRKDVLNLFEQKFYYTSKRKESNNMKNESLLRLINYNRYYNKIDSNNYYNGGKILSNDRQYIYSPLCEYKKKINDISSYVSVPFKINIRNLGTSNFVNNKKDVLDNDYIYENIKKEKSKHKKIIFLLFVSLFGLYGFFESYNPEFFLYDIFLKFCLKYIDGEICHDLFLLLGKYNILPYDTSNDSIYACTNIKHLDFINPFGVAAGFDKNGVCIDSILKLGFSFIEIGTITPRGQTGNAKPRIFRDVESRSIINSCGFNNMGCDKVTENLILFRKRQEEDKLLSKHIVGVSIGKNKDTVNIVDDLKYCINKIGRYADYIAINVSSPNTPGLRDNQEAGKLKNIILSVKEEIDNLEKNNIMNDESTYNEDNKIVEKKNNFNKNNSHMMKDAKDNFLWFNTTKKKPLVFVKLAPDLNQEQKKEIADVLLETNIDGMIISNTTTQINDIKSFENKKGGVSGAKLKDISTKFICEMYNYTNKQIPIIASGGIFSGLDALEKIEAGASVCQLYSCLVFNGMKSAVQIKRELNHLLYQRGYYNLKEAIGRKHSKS
Sequence of UniProt Q8TCC7 (whole entry, looked up): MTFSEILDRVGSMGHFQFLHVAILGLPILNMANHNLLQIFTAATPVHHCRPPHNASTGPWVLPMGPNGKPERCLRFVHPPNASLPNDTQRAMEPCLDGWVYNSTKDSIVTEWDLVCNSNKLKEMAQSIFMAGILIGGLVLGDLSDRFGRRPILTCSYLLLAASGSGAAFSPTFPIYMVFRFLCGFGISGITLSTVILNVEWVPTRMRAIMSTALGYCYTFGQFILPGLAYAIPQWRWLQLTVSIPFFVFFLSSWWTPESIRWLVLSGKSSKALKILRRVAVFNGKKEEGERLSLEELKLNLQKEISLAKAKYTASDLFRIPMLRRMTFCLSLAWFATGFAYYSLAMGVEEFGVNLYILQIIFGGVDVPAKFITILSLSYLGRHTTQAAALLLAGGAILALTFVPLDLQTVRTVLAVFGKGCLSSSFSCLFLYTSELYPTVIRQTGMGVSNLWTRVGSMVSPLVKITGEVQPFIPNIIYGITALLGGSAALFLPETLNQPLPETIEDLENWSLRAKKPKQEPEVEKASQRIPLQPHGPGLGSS
Sequence of UniProt P49720 (whole entry, looked up): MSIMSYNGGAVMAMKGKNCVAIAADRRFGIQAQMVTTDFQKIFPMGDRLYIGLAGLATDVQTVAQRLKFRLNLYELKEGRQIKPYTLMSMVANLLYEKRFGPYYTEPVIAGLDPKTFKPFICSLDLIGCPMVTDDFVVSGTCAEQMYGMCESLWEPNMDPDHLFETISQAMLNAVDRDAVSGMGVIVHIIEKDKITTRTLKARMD
Sequence of UniProt P28062 (whole entry, looked up): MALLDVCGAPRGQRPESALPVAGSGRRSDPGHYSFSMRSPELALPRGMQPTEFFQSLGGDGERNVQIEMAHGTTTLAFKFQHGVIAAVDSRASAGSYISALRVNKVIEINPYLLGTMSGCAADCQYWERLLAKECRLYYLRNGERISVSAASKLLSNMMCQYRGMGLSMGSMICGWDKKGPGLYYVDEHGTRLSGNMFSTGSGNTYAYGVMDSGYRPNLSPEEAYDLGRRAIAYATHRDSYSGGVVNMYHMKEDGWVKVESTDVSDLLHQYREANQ

CC(C)NCC(=O)N1C/C=C/CCOc2cccc(c2)-c2ccnc(n2)Nc2cccc(c2)C1 — IC50 (CDK2): 530 nM
COC1CCN(C(=O)c2cc(Cc3n[nH]c(=O)c4ccccc34)ccc2F)CC1 — IC50 (PARP1; enzyme activity, inhibitor): 5 nM
Cc1c2cc(Br)ccc2nc(-c2ccc(Cl)cc2)[n+]1[O-] — IC50 (PTGS2; inhibitor): 7140 nM
O=C(O)/C(=C/c1c(C(=O)O)[nH]c2cc(Cl)cc(Cl)c12)c1ccccc1 — IC50 (Grin1; inhibitor; historical reference value): 22 nM
CCCCCCCCC/C=C/C(=O)CCc1ccc(O)c(OC)c1 — IC50 (PTGS2; inhibitor): 7500 nM
COc1cc2nccc(Oc3ccc(NC(=O)Nc4ccc(C)cc4)cc3)c2cc1OC — IC50 (KDR; inhibitor): 0.5 nM
Cc1cc(Nc2ccc(C(C)(C)C)c(F)c2)n2ncnc2n1 — IC50 (PFF0160c (Plasmodium falciparum, UniProt Q08210); enzyme activity, inhibitor): 64 ± 3.5 nM
O=C(O)c1cc(O)c(O)c(O)c1 — IC50 (PTGS2; inhibitor): 64300 nM
Cc1c(C2(c3ccc(C(F)(F)F)nc3)CC2)c[nH]c1C(=O)N[C@H](C)c1nc[nH]n1 — IC50 (DHODH (Homo sapiens, UniProt Q02127)): > 100000 nM
O=C(O)/C(=C/c1c(C(=O)O)[nH]c2cc(Cl)cc(Cl)c12)c1ccccc1 — IC50 (Grin1): 22 nM
CCN1CCN(Cc2ccc(C(=O)N[C@@H](CCCNC(=N)N)C(=O)NC(CC(=O)NC(Cc3ccsc3)C(N)=O)CC(C)C)cc2)CC1 (stereo partly drawn) — IC50 (CDK2): 17400 nM
CC(C)(Oc1ccc(Cl)cc1)C(=O)O — IC50 (sweet taste receptor; inhibitor; added: sucralose 2.5 mM): 28000 nM
COC(=O)c1nc(CCl)n(-c2ccc(F)cc2)n1 — IC50 (PTGS2; inhibitor): 17.9 nM
CCc1cccc(CC)c1NC(=O)c1nn(C)c2c1CCc1cnc(Nc3ccc(C(=O)N4CCC[C@H]4CN4CCCC4)cc3OC)nc1-2 — IC50 (CDK2): 1 nM
Oc1ccc(/C=C/c2cc(O)cc(O)c2)cc1 — IC50 (α-amylase (porcine pancreas); enzyme activity, inhibitor; added: starch): 15900 nM
CN1C/C=C/CCOc2cccc(c2)-c2ccnc(n2)Nc2ccc(OCC(=O)N3CCCC3)c(c2)C1 — IC50 (CDK2): 390 nM
Cc1nccn1CCC(C(N)=O)(c1ccccc1)c1ccccc1 — IC50 (muscarinic M2 receptor): 4.13 nM
COc1ccc(CNc2c(CO)cnc3c(C4CC4)cc(C#N)cc23)cc1Cl — IC50 (PDE11A (Homo sapiens, UniProt Q9HCR9)): > 10000 nM
N=C(NOCC(O)CN1CCCCC1)c1cccnc1 (stereo not drawn) — IC50 (PARP1; enzyme activity, inhibitor): 120000 nM
Cc1cc(Nc2nccc(-n3ccnc3-c3ccccc3)n2)cc(C)n1 — IC50 (KDR; inhibitor): 135 nM
NS(=O)(=O)c1ccc(-n2nc(-c3ccc(C(F)(F)F)cc3O)nc2-c2ccccc2O)cc1 — IC50 (PTGS2; inhibitor): 540 nM
COc1ccc2cc1CN(C)C/C=C/CCOc1cccc(c1)-c1ccnc(n1)N2 — IC50 (CDK2): 77 nM
Nc1ncnc2c1ncn2C1CCCC1 — IC50 (rat adenosine A1 receptor): ~70000 nM
CO[C@H]1/C=C/O[C@@]2(C)Oc3c(C)c(O)c4c(O)c(c(/C=N/N5CCN(C)CC5)c(O)c4c3C2=O)NC(=O)/C(C)=C\C=C\[C@H](C)[C@H](O)[C@@H](C)[C@@H](O)[C@@H](C)[C@H](OC(C)=O)[C@@H]1C — IC50 (SLC22A8 (Homo sapiens, UniProt Q8TCC7); inhibitor): 30000 to 33000 nM
COc1cc(C=CC(=O)O)ccc1O — IC50 (PTGS2; inhibitor): 63200 nM
CCN1CCN(Cc2ccc(C(=O)N[C@@H](CCCNC(=N)N)C(=O)NC(CC(=O)NC(Cc3ccsc3)C(N)=O)CC(C)C)cc2)[C@@H](C)C1 (stereo partly drawn) — IC50 (CDK2): 6780 nM
COC(=O)c1cc(O)c(O)c(O)c1 — IC50 (PTGS2; inhibitor): 43100 nM
CN1C/C=C/CCOc2cccc(c2)-c2ccnc(n2)Nc2ccc(OCCN3CCCC3)c(c2)C1 — IC50 (CDK2): 250 nM
CCOc1nc2cccc(C(=O)O)c2n1Cc1ccc(-c2ccccc2-c2nnn[nH]2)cc1 — IC50 (angiotensin II receptor): 0.26 nM
CN1C(=N)NC(=O)/C1=C/c1ccc(S(C)(=O)=O)cc1 — IC50 (PTGS2; inhibitor): 310 nM
COCC(=O)N1CCC[C@H](C(=O)NCc2nc(-c3ccccc3)cs2)C1 — IC50 (PSMB1/PSMB8/PSMB3 (Homo sapiens, UniProt P20618+P28062+P49720); enzyme activity, inhibitor): > 30000 nM
NC(=O)N1CCC(CC(=O)N2CCC([C@H]3c4ncc(Br)cc4CCc4cc(Cl)cc(Br)c43)CC2)CC1 — IC50 (farnesyltransferase; enzyme activity; added: N-ras substrate): 2.8 nM
CN1C/C=C/CCOc2cccc(c2)-c2ccnc(n2)Nc2cc(cc(NC(=O)N3CCOCC3)c2)C1 — IC50 (CDK2): 87 nM

Excerpt of the above:
O=C(O)/C(=C/c1c(C(=O)O)[nH]c2cc(Cl)cc(Cl)c12)c1ccccc1 — IC50 (Grin1; inhibitor; historical reference value): 22 nM
N=C(NOCC(O)CN1CCCCC1)c1cccnc1 (stereo not drawn) — IC50 (PARP1; enzyme activity, inhibitor): 120000 nM
CN1C/C=C/CCOc2cccc(c2)-c2ccnc(n2)Nc2ccc(OCCN3CCCC3)c(c2)C1 — IC50 (CDK2): 250 nM
